# Results from different studies.
# Protocols differ between the studies behind these lines. Values joined by “and” are separate records of one study, mostly repeats; a detail may differ. ± marks the error that the study gave.
# IDE: Insulin-degrading enzyme (IDE, Homo sapiens, UniProt P14735)
Compound,target or system,test,system,conditions,how to read,measurement,value
Cc1ccc(C(=O)N(CCCN)C(c2nc3snc(C)c3c(=O)n2Cc2ccccc2)C(C)C)cc1 (stereo not shown),,,human patients,"intravenous, 7 mg/day",,grade ≥3 hypokalemia patients,0%
COc1nnc2ccc(N3CCC(c4ccc(OCCN5CCN(C)C(=O)[C@H]5C)cc4)CC3)nn12,,,"human, plasma","oral, 30 mg once daily, single dose, monotherapy",,AUClast,0.604 µM·h
C=CCN1CC(=O)N2[C@@H](Cc3ccc(O)cc3F)C(=O)N(Cc3cccc(N4CC(N5CCN(CC)CC5)C4)n3)C[C@@H]2N1C(=O)NCc1ccccc1,,measured: Diarrhea,advanced solid tumour patients,"oral, 100 mg twice daily, expansion part, any grade",,treatment-related adverse events,22.2%
COc1ccc([C@@H](O)c2cc(-c3ncnc4cc(N5CCOCC5)ccc34)c(F)cc2Cl)nn1,,geometric mean,"healthy volunteers, urine","oral, 100 mg, all treatments overall",,renal clearance,2.05 mL/min
Cc1[nH]c(C)c(-c2ccc(OCCOc3ccc(C(F)(F)F)cn3)cc2)c(=O)c1Br,Plasmodium yoelii,,17XL,384-well,,IC50,101 ± 25 nM
COc1ccc2c(c1)c(CC(=O)O)c(C)n2C(=O)c1ccc(Cl)cc1,,,"rat, stomach","concentration not given, 4 h",,ulcer number,8
Cc1[nH]c(C)c(-c2ccc(-c3ccc(C(F)(F)F)cc3C(F)(F)F)nc2)c(=O)c1Br,Plasmodium yoelii,,17XL,384-well,,IC50,116 ± 18 nM
Cc1cc(NC2CCN(C(=O)OC3CCN(C(=O)/C=C/CN(C)C)C3)CC2)n2ncc(C(C)C)c2n1 (stereo not shown),,,patients with advanced solid tumours,"dose not given, QD arm, grade 3 or higher",,patients with adverse events,44%
CCn1ncc(S(=O)(=O)N2C/C=C\CN3[C@H](CO)[C@@H](c4ccc(-c5cccc(C)c5C)cc4)[C@@H]3C2)c1C,IDE,"enzyme activity, inhibitor, fluorescence kinetic",,together with: Mca-RPPGFSAFK(Dnp)-OH substrate,,EC50,16 nM
CCn1cc(C(=O)N2CCOCC2)c(=O)c2cc(NC3Cc4ccccc4C3)cnc21,,,"human, fed","oral suspension, 300 mg single dose, arithmetic mean",,AUC(0-last),13500 ng·h/mL
COc1ccnc(C(N)=O)c1O,,aerobic dark soil incubation,clay loam soil,"20 °C, persistence endpoint",,DT50,10.1 days
CC(=O)N(C)[C@H]1CCN(C(=O)c2cnc3c(c2)C[C@](C)(c2ccc(F)cc2)N3)C1,,measured: abdominal pain,human,"oral, 15 mg once daily",,adverse event duration,1 days
CCc1c(-c2ccccc2)c(-c2ccccc2)nn1-c1ccccc1-c1cccc(OCC(=O)O)c1,,,Sprague-Dawley rat,"intravenous, dose not given",,AUMC extrapolated observed,14% and 8.86% and 20.7%
C[Si](C)(C)O[Si](C)(C)O[Si](C)(C)C,,,,"2.7 to 6.3 µg/L, 20.8 °C",,log KOA,3.79
COc1cc(Nc2ncc3c(n2)-c2ccc(Cl)cc2C(c2c(F)cccc2OC)=NC3)ccc1C(=O)O,,,patients,"oral, dose not given, grade 4, any attribution, together with: pembrolizumab",,decreased platelet count incidence,4%
COc1cc([C@@H]2c3cc4c(cc3[C@@H](O[C@@H]3O[C@@H]5CO[C@@H](C)O[C@H]5[C@H](O)[C@H]3O)[C@H]3COC(=O)[C@H]23)OCO4)cc(OC)c1O,HBL-1,,,"1 µM, 120 h",,viability,10.4%
N#Cc1ccc2c(c1)[C@H]1CCCN(C(=O)c3ccc4[nH]cnc4c3)[C@H]1C2,,,"human, male","160 mg, day 15",,androstenedione level,15.6 nmol/L
Cc1cc(Nc2ccc(S(F)(F)(F)(F)F)cc2)n2nc(C(C)(F)F)nc2n1,,,Plasmodium vivax malaria patients,"oral, 400 mg",,adverse event Fatigue,0%
O=C1CC[C@H](N2Cc3cc(N4CCN(CC5CCN(c6ccc([C@@H]7c8ccc(O)cc8CC[C@@H]7c7ccccc7)cc6)CC5)CC4)ccc3C2=O)C(=O)N1,,,human,"oral, 200 mg, together with: rosuvastatin 10 mg",,participants with muscle spasms,8.3%
C[C@@H](Nc1cc(F)cc(F)c1)c1cc(C(=O)N(C)C)cc2c(=O)cc(N3CCOCC3)oc12,,,advanced solid tumour patients,"oral, 60 mg twice daily, continuous monotherapy",,any dose reduction,0%
CNC(=O)c1ccc(-c2cnc3ncc(Cc4ccc5ncccc5c4)n3n2)cc1F,,,healthy human subjects,"oral, 200 mg, Nausea, all grades, all causality, together with: itraconazole 200 mg/day",,subjects with adverse event,11.1%
COc1ccccc1-c1ccc([C@H]2[C@@H]3CN(C(=O)c4cccnc4)C[C@H]2N3)cc1,IDE,"enzyme activity, inhibitor, fluorogenic kinetic",,together with: Mca-RPPGFSAFK(Dnp)-OH substrate,,EC50,7100 nM
C1=C/COCc2cc(ccc2OCCN2CCCC2)Nc2nccc(n2)-c2cccc(c2)COC/1,,,"BALB/c mice, rhEPO-induced polycythemia","120 mg/kg, day 3",,body weight,19.3 g and 18.1 g and 18.6 g and 19.1 g and 20.3 g and 18.5 g
C#Cc1cccc(Nc2ncnc3cc(OC)c(OCCCCCCC(=O)NO)cc23)c1,HBL-1,,,"0.5 µM, 120 h",,viability,57.9%
FC(F)(F)c1ccc(/S(=N\c2ccccc2)C2CC2)cc1 (stereo not shown),,,human liver microsomes,,reference: hepatic blood flow,metabolic stability,> 89%

# A few entries again:
Compound,target or system,test,system,conditions,how to read,measurement,value
COc1ccc([C@@H](O)c2cc(-c3ncnc4cc(N5CCOCC5)ccc34)c(F)cc2Cl)nn1,,geometric mean,"healthy volunteers, urine","oral, 100 mg, all treatments overall",,renal clearance,2.05 mL/min
C#Cc1cccc(Nc2ncnc3cc(OC)c(OCCCCCCC(=O)NO)cc23)c1,HBL-1,,,"0.5 µM, 120 h",,viability,57.9%
